Published values of several laboratories.
Parts stem from different laboratories: compare values within a part only.

Block 1
Target: RNA binding protein fox-1 homolog 2, RRM domain, GST-SBP tag (RBFOX2, Homo sapiens, UniProt O43251-10, residues 100-194)
Technique: RNA Bind-n-Seq
Form: RNA
Sample: in vitro
Concentration: 365 nM
Notes: natural RNA segment, single round, ends assumed
Reference: no-protein control
Direction: higher = stronger binding
Measurement: RBNS enrichment (R)
Construct (chain): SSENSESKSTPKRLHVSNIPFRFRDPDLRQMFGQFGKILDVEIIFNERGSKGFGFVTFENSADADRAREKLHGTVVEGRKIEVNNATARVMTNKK
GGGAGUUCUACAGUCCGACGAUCUCAUAAAUCUCAGCCAAUGGUCUUCAAAGCCUUUACCUGAAGAGACCACACUCCAACACGGAGCUGGGGGCAUCGCUCCACAAAGACCUGCUGUGGGAAGAGGGUACUGAUGGAAUUCUCGGGUGCCAA: 0.327
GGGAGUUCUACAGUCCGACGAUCGUUGCCCUCCUACCCAAUUGUCAUGAUUGUCCUUAGUACCCUAGGCCUAGAUUCUGAGAUCUUCCCAUUCUAGGCCUACAAGCACUACUUGCUGUAGCUGAGACUUGUCUUGGAAUUCUCGGGUGCCAA: 0.289
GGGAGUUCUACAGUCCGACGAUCUCAUCAAAUCUCCAAACUCUUAAAGGAUGCUUUCGGAAAACACGCUGUAUACCUAGAUGAUGACUAAAUGCAAAAUCCUUGGGCUUUGGUUUUUUUCUAGUAAGGAUUUUUGGAAUUCUCGGGUGCCAA: 0.383
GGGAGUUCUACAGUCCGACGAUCCCCCUCAAAGCCUUCAGCCACCUCCGCCACUCAGGAACUGGAUAGACUGAUGGCCUCGCUCUCUGACUUCCGUGUUCAGAACCAUGUUCCAGCCUCAGGGCCACCUCAGCUGGAAUUCUCGGGUGCCAA: 0.144
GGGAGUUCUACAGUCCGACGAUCCGCAGGGAAGACCUGUGGCUAGGAGCAGGCUUUCAGCUGACAUGAAGAUGGCCCCCGCACAGCCUUCAUCUCAUCCUGUGGGACUCUGACGUCACAGAACACCCAGGAAAUGGAAUUCUCGGGUGCCAA: 0.314
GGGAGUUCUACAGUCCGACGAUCAGGGCUUUCUUGGCUUUGGCGAAGGUCAGUGUACAGACAUUCCAUGGUACCAGAGUGCUCAGAAACUCAAGAUAGGAUAUGCCUCACCCUCAGCUACUCCUUGUUUUAAAUGGAAUUCUCGGGUGCCAA: 0.301
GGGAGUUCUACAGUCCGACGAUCUAUCUCUUUUCUUCCAGCCCUGAGUGGCUGCGCUGCUGCCAUAUGUGACAAGUGGUCCUCACCAGUGUUAAGUGCUUCUGGAUUCAUGGGUGAGUUCCUUGGACGACCCCUGGAAUUCUCGGGUGCCAA: 0.349
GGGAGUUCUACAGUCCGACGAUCCCCAAGCUGUCCCAGCAAAUGGGCAGGAGGGGCAUGGCCUCUUUUAUAUAUAUAUAUCUAUUUAUUUUAUAUGUGUGUUUGUGAGGAAGAGGAUAUUUGUCAUUUCCUUAUGGAAUUCUCGGGUGCCAA: 0.594

Block 2
Target: Fragile X messenger ribonucleoprotein 1, C-terminal low-complexity region (Fmr1, Mus musculus, UniProt P35922)
Technique: RNA Bind-n-Seq
Form: RNA
Sample: in vitro
Concentration: 200 nM
Notes: whole 134-nt RNA, ends assumed
Together with: 150 mM LiCl
Reference: input library
Direction: higher = stronger binding
Measurement: log2 enrichment
Each molecule: 7-deaza-guanosine replaces G
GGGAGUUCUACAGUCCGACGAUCAGUCCUGUGCUACACAUCGUAUGUACCGAAUCGGGGAGGGGAAAAAAAGGGGUGGGGAAAGUAUUAUGUUACGCCGUUCGGAUCUGCACUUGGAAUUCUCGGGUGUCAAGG: -0.0153
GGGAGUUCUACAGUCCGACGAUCGUCCUGUGCUACACAUCGUAUGUACCGAAUCGGGGUUUGGGGUUUGGGGUUUUUGGGGAAAGUAUUAUGUUACGCCGUUCGGAUCUGCACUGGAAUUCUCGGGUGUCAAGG: -0.817
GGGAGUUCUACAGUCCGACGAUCCAAGUCCUGUGCUACACAUCGUAUGUACCGAAUCGGAAAAGGGAAAAGGAAAAGGAAAGUAUUAUGUUACGCCGUUCGGAUCUGCACUUCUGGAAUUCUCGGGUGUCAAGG: -0.872
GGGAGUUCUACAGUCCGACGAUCUCAAGUCCUGUGCUACACAUCGUAUGUACCGAAUCGGGGCCGGGGCCGGCCGGGAAAGUAUUAUGUUACGCCGUUCGGAUCUGCACUUCCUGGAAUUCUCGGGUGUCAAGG: -0.0539
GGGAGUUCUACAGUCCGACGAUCUCCUGUGCUACACAUCGUAUGUACCGAAUCGGGGCCCCCCGGCCCCCCGGCCCCCCGGGGAAAGUAUUAUGUUACGCCGUUCGGAUCUGCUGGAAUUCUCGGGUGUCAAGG: 0.782
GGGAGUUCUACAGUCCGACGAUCCCUGUGCUACACAUCGUAUGUACCGAAUCGGAAAAAAAGGGGAAAAAAAGGAAAAAAAGGAAAGUAUUAUGUUACGCCGUUCGGAUCUGCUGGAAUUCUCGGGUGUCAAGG: -0.628
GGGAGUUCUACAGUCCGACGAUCUCCUGUGCUACACAUCGUAUGUACCGAAUCGGGGUUUUUUUGGGGAGGGGUUUUUGGGGAAAGUAUUAUGUUACGCCGUUCGGAUCUGCAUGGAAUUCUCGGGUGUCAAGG: 0.00656
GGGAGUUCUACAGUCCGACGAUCAAGUCCUGUGCUACACAUCGUAUGUACCGAAUCGGAAAAAGGAAAGGUUUUUUUGGAAAGUAUUAUGUUACGCCGUUCGGAUCUGCACUUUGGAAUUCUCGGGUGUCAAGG: -2.66

Block 3
Target: Eukaryotic initiation factor 4A-I (EIF4A1, Homo sapiens, UniProt P60842, residues 1-406, full length assumed)
Sequence of UniProt P60842 (whole entry, looked up): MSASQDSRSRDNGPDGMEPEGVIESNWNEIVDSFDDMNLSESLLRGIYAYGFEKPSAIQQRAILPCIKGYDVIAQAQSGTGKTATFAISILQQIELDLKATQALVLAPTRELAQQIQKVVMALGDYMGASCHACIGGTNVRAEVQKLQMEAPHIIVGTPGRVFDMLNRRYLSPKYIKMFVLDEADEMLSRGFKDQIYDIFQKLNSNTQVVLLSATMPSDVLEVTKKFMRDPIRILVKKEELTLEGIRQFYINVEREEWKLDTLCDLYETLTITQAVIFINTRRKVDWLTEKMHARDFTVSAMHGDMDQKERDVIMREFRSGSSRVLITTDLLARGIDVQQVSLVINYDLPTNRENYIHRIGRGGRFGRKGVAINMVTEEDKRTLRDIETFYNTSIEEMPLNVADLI
Technique: RNA Bind-n-Seq
Form: RNA
Sample: in vitro
Concentration: 15 pmol
Notes: 4-mer, random 30-nt RNA, single round
Together with: DMSO vehicle, 2 mM AMP-PNP
Reference: input library
Direction: higher = stronger binding
Measurement: 4-mer enrichment
GCCA: 1.43 fold
GUAC: 0.615 fold
UGAA: 1.05 fold
UUCG: 0.699 fold
AAUA: 1.15 fold
CGCU: 1.02 fold
CACG: 1.14 fold
CAUG: 0.811 fold
AAGU: 0.866 fold
GCGU: 0.98 fold
CUCC: 1.47 fold
CCUA: 0.894 fold
AACC: 1.91 fold
UGCG: 1.03 fold
CUAG: 0.587 fold
GUCA: 1.34 fold

Block 4
Target: Interferon regulatory factor 7, full length, phosphomimetic (IRF7, Homo sapiens, UniProt Q92985, residues 1-503, S471D/S472D/S475D/S476D/S477D/S483D/S484D/S487D)
Sequence of UniProt Q92985 (whole entry, unmodified, looked up): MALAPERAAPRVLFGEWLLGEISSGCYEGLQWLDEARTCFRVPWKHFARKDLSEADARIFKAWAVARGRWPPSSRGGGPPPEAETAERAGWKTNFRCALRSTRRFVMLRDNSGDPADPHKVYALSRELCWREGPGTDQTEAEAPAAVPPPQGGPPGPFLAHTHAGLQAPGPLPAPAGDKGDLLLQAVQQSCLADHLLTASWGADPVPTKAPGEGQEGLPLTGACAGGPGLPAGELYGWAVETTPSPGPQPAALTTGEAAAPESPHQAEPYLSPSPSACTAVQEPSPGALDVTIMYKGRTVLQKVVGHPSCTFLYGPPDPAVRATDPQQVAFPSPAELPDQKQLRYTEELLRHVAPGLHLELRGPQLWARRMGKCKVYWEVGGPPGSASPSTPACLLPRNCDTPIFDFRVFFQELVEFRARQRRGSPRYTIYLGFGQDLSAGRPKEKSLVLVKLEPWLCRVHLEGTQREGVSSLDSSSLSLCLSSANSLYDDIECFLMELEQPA
Technique: protein-binding microarray
Form: double-stranded DNA, one strand shown
Sample: in vitro
Concentration: 2200 nM top
Notes: 60-bp whole probe
Together with: salmon DNA 0.4 mg/ml
Reference: random background probes
Direction: higher = stronger binding
Measurement: fitted relative affinity
Shared flanks, not repeated: GCCTAGCAC … GTCTTGATTCGCTTGACGCTGCTG
GACGGACCGCTACTGCTGACGTGCTAG: -0.303 z-score
TCAATACTGATTTCCACACTGTGCTAG: 1.07 z-score
TCATTTTCGTTTTTATTACTGTGCTAG: 11.7 z-score
GTCACTCTCAGAATCTCTCAGTGCTAG: 0.891 z-score
TCAACTCTTCTTTTTTTACTGTGCTAG: 1.04 z-score
GTTTCTCTTTCCTTCTTGATGTGCTAG: 6.84 z-score
GAAATTTTCCCCTACTGTATGTGCTAG: 2.05 z-score
TCCTGTATGGATGTGTTTTAGTGCTAG: 0.788 z-score
GACGGAATCGGTATCGGGACGTGCTAG: 0.335 z-score
ATTACTCCCCAACTCGCCTTGTGCTAG: 1.69 z-score
TTAGATTTCGGGTTTCGATAAGTGCTA: 4.8 z-score
AAAACTCTTTATTTAAGCTCGTGCTAG: -0.566 z-score
GACGTTTTCGACACTGGGGACGTGCTA: 2.69 z-score
GACGGTATCGGAACTGGGGACGTGCTA: -0.469 z-score
TTAGAAATCGGGTATCGATTAGTGCTA: -0.173 z-score
ATATGTATATATGTGTATATGTGCTAG: 1.13 z-score
